Experimental data gathered from unrelated publications.
Each line is one published result; not all experiments were run side by side. Numbers after ± are the reported error.

SMILES	assay	system	setting	ED50
CN1CC[C@]23c4c5ccc(O)c4O[C@H]2[C@@H](O)C=C[C@H]3[C@H]1C5	–	B6SJL mice	subcutaneous	4.2 ± 0.6 mg/kg
CN1CC[C@]23c4c5ccc(O)c4O[C@H]2c2[nH]c4ccccc4c2C[C@@]3(O)[C@H]1C5	anti-hyperalgesia, von Frey	ICR mice, paw incision model	s.c., 1 h post-dose, single agent	8.8 mg/kg
COc1cc(CCNC(C)c2ccccc2O)c(OC)cc1C#N.Cl (stereo not shown)	–	male C57BL/6J mice	subcutaneous, 30 min session	1.86 mg/kg
CCCC(NC)C(=O)c1ccc2c(c1)OCO2 (racemic)	locomotor activity	C57BL/6J mice, male	subcutaneous, total distance travelled	2.79 ± 0.29 mg/kg
C[C@@]1(O)CC[C@@]2(C)[C@@H](CC[C@@H]3[C@@H]2CC[C@]2(C)[C@@H]([N+](=O)[O-])CC[C@@H]32)C1	protection against pentylenetetrazol seizures	male NIH Swiss mice	intraperitoneal, 15 min before test, together with: pentylenetetrazol 80 mg/kg s.c.	10 mg/kg
CCCCCn1cc(C(=O)C2C(C)(C)C2(C)C)c2ccccc21	Δ9-THC discrimination substitution	C57BL/6J male mice	ip, 30 min pre-session, together with: trained on 5.6 mg/kg Δ9-THC	7.4 µmol/kg
CCNC(CC)C(=O)c1ccc2c(c1)OCO2 (stereo not shown)	locomotor activity, item: total distance traveled	C57BL/6J mice (male)	subcutaneous	~2 mg/kg
C[C@]12CC[C@H](O)C[C@@H]1CC[C@@H]1[C@@H]2CC[C@]2(C)[C@@H]([N+](=O)[O-])CC[C@@H]12	protection against pentylenetetrazol seizures	male NIH Swiss mice	intraperitoneal, 15 min before test, together with: pentylenetetrazol 80 mg/kg s.c.	89.4 mg/kg
CCC(C(=O)c1ccc2c(c1)OCO2)N(C)C (stereo not shown)	locomotor activity, item: total distance traveled	C57BL/6J mice (male)	subcutaneous	17.6 ± 1.6 mg/kg
CN(C)C(=O)C(CCN1CCC(O)(c2ccc(Cl)cc2)CC1)(c1ccccc1)c1ccccc1	anti-hyperalgesia, von Frey	ICR mice, paw incision model	s.c., 1 h post-dose, single agent	3.2 mg/kg

Some of these lines once more:
SMILES	assay	system	setting	ED50
CCCCCn1cc(C(=O)C2C(C)(C)C2(C)C)c2ccccc21	Δ9-THC discrimination substitution	C57BL/6J male mice	ip, 30 min pre-session, together with: trained on 5.6 mg/kg Δ9-THC	7.4 µmol/kg
